Experimental data from different studies.
pIC50: −log10 of the molar value.
Target: Voltage-gated inwardly rectifying potassium channel KCNH2 (KCNH2, Homo sapiens, UniProt Q12809)
Chain of UniProt Q12809 (whole entry, looked up): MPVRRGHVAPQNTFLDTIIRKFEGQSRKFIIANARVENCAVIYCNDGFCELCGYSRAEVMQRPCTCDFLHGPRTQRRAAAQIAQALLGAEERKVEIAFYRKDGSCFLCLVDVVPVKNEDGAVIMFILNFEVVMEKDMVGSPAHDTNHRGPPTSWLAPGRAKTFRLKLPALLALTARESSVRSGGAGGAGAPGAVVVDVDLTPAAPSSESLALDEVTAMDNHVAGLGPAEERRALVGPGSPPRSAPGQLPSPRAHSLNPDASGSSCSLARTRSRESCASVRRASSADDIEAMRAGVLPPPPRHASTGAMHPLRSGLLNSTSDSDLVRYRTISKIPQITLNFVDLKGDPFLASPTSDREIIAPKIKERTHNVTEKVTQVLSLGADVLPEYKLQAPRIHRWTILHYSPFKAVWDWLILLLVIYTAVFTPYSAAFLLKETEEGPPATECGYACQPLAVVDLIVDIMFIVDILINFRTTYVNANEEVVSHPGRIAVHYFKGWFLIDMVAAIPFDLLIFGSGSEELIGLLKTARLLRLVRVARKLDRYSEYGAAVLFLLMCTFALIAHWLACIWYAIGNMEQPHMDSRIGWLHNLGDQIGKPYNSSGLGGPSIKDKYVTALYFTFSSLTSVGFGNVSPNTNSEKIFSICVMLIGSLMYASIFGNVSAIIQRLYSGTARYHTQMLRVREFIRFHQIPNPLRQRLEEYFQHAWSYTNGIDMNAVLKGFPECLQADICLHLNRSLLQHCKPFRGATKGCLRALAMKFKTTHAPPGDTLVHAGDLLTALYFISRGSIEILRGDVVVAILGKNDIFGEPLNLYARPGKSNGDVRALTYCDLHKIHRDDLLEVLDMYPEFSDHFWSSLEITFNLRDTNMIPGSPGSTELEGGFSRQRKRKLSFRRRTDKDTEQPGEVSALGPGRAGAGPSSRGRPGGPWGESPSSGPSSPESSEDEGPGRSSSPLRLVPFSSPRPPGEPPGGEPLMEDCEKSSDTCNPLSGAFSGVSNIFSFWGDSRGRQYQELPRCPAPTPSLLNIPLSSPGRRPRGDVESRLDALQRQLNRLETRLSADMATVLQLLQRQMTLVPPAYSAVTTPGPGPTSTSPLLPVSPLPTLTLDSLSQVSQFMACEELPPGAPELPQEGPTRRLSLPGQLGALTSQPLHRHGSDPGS

SMILES	observed	action	method	cell line	time	pH	pIC50
C[C@H]1CN(C(=O)c2cn(-c3ccnc(N)n3)c3cc(C#CC4(O)CCCCC4)ccc23)CCN1							4.51
O=C(c1ccc(-c2cccc(C(F)(F)F)c2)cc1)N1CCN(c2ncccn2)CC1	ion current		automated patch clamp				4.85
COC1C(c2ccc(Cl)c(Cc3ccc(OC4CCOC4)cc3)c2)OC(CO)C(O)C1O (centres unmarked)	ion current	inhibitor					< 4.52
Cn1ccc([C@H](CCO)Nc2nc(N3CCOCC3)c3cc(-c4ccccc4)sc3n2)n1	ion current	inhibitor					4.72
CC(C)(C)n1ncc2c(=O)n(Cc3cccc(F)c3)c(NCc3ccc(F)cn3)nc21	ion current	inhibitor					< 4.40
OCC1OC(n2cnc3c(NCc4ccc(Br)s4)ncnc32)C(O)C1O (centres unmarked)	ion current	inhibitor	patch clamp				3.81
CCC1(CC)CC(=O)N(C2CCOc3ccc(C(=O)NC4CC(C)(C)Oc5ccccc54)cc32)C(=N)N1 (centres unmarked)	ion current	inhibitor	patch clamp	CHO		pH 7.3	6.20
CC(=O)N(C)CCN1CCN(c2cnc3c(cc(C(=O)NCc4ccc(Cl)cc4)c(=O)n3CC(=O)N3CC(C)(F)C3)n2)C1=O	ion current		automated patch clamp	CHO expressing hERG			4.89
COc1cccc2c1C(=O)c1c(O)c3c(c(O)c1C2=O)C[C@@](O)(C(=O)CO)C[C@@H]3O[C@H]1C[C@H](N)[C@H](O)[C@H](C)O1							6.00
CN(CCC#N)c1nc(NCC[C@H]2CCCN2C)nc2sc(-c3ccccc3)cc12	ion current	inhibitor					6.34
CC(C)(C)NCc1ccc(Nc2ccnc3cc(Cl)ccc23)cc1O	ion flux	inhibitor			30 min		< 5.00
Cc1[nH]nc2c1N=C(c1ccccc1Cl)c1cnc(N3CCOCC3)cc1N2	ion current	inhibitor					5.05
CN1CCCN(c2cnc3c(cc(C(=O)NCc4ccc(Cl)cc4)c(=O)n3CC(=O)N3CC(C)(F)C3)n2)C1=O	ion current		automated patch clamp	CHO expressing hERG			5.00
CCC1(CC)CC(=O)N(C2c3cc(C(=O)NC4c5ccccc5CC4O)ccc3OC2(C)COC)C(=N)N1 (centres unmarked)	ion current	inhibitor	patch clamp	CHO		pH 7.3	4.60

For quick reference, copied from above:
SMILES	observed	action	method	cell line	time	pH	pIC50
CC(=O)N(C)CCN1CCN(c2cnc3c(cc(C(=O)NCc4ccc(Cl)cc4)c(=O)n3CC(=O)N3CC(C)(F)C3)n2)C1=O	ion current		automated patch clamp	CHO expressing hERG			4.89
COc1cccc2c1C(=O)c1c(O)c3c(c(O)c1C2=O)C[C@@](O)(C(=O)CO)C[C@@H]3O[C@H]1C[C@H](N)[C@H](O)[C@H](C)O1							6.00
